Assay results gathered from unrelated publications.
Lines come from different studies, so protocols differ. “And” joins repeats or separate records; there may be more than shown. ± gives the spread as reported.
AGER: Advanced glycosylation end product-specific receptor (AGER, Homo sapiens, UniProt Q15109)
UniProt Q10QA5, sequence (whole entry, looked up): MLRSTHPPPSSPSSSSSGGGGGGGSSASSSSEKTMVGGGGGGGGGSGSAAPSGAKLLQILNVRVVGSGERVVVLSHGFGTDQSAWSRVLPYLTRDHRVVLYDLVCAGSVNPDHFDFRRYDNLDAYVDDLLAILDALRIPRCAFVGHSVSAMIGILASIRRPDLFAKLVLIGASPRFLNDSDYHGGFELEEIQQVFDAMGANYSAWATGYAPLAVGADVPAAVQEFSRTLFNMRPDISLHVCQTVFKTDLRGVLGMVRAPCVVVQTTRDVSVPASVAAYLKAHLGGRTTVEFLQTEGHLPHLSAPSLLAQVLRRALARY
UniProt Q15109, sequence (whole entry, looked up): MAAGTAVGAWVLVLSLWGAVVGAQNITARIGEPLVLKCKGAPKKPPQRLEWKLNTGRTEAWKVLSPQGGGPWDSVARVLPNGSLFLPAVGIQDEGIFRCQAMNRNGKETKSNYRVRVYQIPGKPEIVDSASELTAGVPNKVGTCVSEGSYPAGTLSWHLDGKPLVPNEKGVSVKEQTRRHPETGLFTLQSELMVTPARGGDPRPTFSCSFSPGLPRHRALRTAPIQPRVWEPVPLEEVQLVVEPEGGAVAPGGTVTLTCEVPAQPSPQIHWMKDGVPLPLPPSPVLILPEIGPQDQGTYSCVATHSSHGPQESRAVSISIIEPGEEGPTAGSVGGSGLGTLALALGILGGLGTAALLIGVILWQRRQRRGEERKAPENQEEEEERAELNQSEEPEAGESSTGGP
UniProt P08191, sequence (whole entry, looked up): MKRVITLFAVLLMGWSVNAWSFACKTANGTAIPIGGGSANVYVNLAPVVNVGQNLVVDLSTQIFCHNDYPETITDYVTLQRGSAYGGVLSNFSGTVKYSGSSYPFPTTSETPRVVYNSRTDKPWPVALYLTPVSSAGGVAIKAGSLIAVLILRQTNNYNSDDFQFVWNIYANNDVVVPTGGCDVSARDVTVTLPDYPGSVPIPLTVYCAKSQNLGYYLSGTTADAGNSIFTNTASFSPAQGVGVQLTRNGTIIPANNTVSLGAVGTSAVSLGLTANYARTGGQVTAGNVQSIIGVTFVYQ
UniProt P06241, sequence (whole entry, looked up): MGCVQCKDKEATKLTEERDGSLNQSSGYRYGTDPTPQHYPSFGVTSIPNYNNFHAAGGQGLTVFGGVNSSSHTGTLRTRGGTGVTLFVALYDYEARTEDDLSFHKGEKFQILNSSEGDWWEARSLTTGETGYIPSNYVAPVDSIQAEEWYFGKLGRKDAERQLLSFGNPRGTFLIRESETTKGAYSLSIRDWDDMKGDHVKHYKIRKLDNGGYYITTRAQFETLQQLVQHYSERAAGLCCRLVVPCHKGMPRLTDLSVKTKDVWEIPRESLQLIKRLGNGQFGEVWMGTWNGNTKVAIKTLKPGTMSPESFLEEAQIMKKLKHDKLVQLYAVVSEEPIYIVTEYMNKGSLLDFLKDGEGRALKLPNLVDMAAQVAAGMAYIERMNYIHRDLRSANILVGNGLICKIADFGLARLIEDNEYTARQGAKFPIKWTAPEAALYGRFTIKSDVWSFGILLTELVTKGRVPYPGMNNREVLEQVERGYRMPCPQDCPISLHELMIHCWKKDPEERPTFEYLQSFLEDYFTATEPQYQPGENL
UniProt Q9NSU2, sequence (whole entry, looked up): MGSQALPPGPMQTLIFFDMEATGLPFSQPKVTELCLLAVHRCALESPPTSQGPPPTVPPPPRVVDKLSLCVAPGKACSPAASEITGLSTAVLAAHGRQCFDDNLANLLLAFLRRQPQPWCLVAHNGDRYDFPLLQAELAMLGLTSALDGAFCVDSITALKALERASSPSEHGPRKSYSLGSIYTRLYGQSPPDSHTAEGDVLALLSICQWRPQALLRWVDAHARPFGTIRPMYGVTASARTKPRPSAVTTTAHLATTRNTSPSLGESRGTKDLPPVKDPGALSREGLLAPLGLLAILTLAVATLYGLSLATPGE
UniProt P42681, sequence (whole entry, looked up): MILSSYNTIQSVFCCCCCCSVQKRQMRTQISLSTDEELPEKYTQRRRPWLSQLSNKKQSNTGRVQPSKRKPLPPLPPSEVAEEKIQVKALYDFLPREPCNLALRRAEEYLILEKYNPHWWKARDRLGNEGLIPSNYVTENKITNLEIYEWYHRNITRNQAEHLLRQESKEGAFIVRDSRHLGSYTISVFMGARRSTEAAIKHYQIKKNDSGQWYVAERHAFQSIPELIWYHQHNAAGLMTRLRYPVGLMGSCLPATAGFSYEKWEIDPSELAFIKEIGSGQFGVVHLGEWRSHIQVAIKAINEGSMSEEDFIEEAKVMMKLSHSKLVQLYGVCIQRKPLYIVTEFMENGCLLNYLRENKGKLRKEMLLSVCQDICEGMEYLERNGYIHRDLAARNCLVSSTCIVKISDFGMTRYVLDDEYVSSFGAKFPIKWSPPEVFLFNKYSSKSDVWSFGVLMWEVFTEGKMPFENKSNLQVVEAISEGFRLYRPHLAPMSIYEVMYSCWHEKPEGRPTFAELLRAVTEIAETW
UniProt Q8TBX8, sequence (whole entry, looked up): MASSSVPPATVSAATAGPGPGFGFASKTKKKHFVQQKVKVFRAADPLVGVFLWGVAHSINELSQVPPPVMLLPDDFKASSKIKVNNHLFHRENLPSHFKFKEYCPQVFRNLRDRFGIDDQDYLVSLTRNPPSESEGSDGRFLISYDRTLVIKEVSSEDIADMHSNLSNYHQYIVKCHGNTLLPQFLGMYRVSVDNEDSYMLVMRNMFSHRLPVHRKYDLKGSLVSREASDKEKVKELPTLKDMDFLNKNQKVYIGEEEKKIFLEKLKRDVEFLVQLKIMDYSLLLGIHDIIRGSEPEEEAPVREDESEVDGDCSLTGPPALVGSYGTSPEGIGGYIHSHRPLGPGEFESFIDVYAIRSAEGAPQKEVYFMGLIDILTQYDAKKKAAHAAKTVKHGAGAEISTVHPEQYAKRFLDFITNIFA
UniProt P17706, sequence (whole entry, looked up): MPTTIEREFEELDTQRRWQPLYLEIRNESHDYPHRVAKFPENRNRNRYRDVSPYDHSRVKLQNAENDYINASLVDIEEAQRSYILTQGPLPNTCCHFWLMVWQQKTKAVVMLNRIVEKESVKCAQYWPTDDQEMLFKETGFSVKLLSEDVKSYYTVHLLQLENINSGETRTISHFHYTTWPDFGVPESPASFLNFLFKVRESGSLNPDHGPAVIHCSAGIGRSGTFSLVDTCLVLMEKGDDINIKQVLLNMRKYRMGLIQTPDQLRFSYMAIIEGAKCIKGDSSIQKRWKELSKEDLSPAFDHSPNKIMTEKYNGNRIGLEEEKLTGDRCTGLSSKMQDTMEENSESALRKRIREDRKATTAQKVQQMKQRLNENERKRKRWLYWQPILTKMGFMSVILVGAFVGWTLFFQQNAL
UniProt P50552, sequence (whole entry, looked up): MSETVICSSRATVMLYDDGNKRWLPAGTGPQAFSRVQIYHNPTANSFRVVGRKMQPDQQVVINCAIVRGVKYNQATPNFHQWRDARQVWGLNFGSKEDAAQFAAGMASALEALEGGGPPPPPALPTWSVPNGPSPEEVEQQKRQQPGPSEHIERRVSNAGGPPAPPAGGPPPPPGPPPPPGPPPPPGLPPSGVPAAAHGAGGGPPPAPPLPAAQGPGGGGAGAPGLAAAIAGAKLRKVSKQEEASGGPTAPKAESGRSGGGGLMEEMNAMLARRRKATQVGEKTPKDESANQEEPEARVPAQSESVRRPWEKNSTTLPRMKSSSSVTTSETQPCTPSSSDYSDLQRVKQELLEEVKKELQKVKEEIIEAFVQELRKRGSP
UniProt Q6L545, sequence (whole entry, looked up): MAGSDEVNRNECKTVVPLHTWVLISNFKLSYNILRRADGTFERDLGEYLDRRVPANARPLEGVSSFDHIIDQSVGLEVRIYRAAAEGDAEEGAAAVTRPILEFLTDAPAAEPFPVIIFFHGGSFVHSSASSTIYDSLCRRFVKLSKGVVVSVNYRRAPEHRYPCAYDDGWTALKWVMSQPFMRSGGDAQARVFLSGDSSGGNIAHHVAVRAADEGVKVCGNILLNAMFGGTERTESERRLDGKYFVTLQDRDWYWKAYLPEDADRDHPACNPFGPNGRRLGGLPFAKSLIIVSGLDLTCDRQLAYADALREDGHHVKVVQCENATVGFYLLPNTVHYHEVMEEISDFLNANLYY
UniProt O75469, sequence (whole entry, unmodified, looked up): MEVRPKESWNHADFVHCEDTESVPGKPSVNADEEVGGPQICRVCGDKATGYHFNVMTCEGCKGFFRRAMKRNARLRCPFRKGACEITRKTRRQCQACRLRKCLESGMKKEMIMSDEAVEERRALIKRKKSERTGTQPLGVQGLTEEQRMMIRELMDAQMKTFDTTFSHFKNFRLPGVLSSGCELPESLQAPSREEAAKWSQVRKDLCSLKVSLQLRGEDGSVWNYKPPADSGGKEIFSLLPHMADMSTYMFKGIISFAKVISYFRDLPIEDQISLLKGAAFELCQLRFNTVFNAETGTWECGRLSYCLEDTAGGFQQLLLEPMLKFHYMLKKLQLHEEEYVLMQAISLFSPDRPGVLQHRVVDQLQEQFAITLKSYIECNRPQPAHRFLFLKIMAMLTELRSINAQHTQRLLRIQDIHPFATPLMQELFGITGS
UniProt P11086, sequence (whole entry, looked up): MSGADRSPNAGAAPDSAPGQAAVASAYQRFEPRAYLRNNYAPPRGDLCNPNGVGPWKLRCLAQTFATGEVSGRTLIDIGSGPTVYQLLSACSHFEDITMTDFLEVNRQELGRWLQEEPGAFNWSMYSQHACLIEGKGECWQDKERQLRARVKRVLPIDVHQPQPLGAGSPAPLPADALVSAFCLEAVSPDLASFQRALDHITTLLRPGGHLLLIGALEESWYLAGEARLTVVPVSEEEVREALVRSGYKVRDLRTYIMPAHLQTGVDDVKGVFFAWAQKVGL

Structure (SMILES) | target | assay | test system | setting | Kd
Cn1c(=O)n(C2CCC(=O)NC2=O)c2ccc(C3CCN(CC(=O)Nc4cccc(CS(=O)(=O)N5CC[C@H](Nc6cccc(-c7sc(C(=O)O)c(OCC(=O)O)c7Cl)c6)CC5(C)C)c4)CC3)cc21 (stereo partly shown) | PTPN2 (Homo sapiens, UniProt P17706) | binding, BLI |  |  | 0.052 µM
CC(=O)NC(Cc1ccccc1Cl)C(=O)N1CCCC1C(=O)N1CCCC1C(=O)N1CCC2C=CC3CCC(C(=O)O)N3C(=O)C21 (stereo not shown) | VASP (Homo sapiens, UniProt P50552) | binding, fluorescence |  |  | 3.2 µM
COC(=O)CCCNC(=O)c1cc(S(N)(=O)=O)c(Cl)cc1NC1CCCCC1 | CA4 (Homo sapiens, UniProt P22748) |  |  | pH 7 | 1.6 µM
Cc1ccc(CN)cc1 | Maoa (Rattus norvegicus, UniProt P21396) | steady-state isotope effects |  | pH 7.5 | 41 µM
CCCC[C@@H]1NC(=O)[C@H](Cc2ccc(O)cc2)NC(=O)[C@@H]2CCCN2C(=O)[C@H](CC(=O)O)NC(=O)[C@H](C)NC(=O)[C@H](Cc2ccccc2)NC(=O)[C@@H]2CSCCC(=O)N3CN(CN(C3)C(=O)CCSC[C@@H](C(=O)N[C@@H](C)C(N)=O)NC1=O)C(=O)CCSC[C@H](NC(C)=O)C(=O)N[C@@H](CC(C)(C)C)C(=O)N1CCC[C@H]1C(=O)N[C@@H](CCC(=O)O)C(=O)N[C@H](CCCCNC(=O)CCc1cn(CCOCCOCCOCCN(CCOCCOCCOCCC(=O)N[C@H]3CSCCC(=O)N4CN5CN(C4)C(=O)CCSC[C@H](NC(=O)[C@@H](CC(=O)O)NC(=O)[C@H](Cc4cccc6ccccc46)NC(=O)[C@@H]4CCCN4C3=O)C(=O)N[C@@H](CCSC)C(=O)N[C@@H](CCCCNC(=N)N)C(=O)N[C@@H](CC(=O)O)C(=O)N[C@@H](Cc3c[nH]c4ccccc34)C(=O)N[C@@H](CO)C(=O)N[C@@H]([C@@H](C)O)C(=O)N3CCC[C@H]3C(=O)N3C[C@H](O)C[C@H]3C(=O)N[C@@H](Cc3c[nH]c4ccccc34)C(=O)N[C@H](C(N)=O)CSCCC5=O)CCOCCOCCOCCn3cc(CCC(=O)NCCCC[C@H]4NC(=O)[C@H](CCC(=O)O)NC(=O)[C@@H]5CCCN5C(=O)[C@H](CC(C)(C)C)NC(=O)[C@@H](NC(C)=O)CSCCC(=O)N5CN6CN(C5)C(=O)CCSC[C@H](NC(=O)[C@H](Cc5ccc(O)cc5)NC(=O)[C@@H]5CCCN5C4=O)C(=O)N[C@@H](Cc4ccccc4)C(=O)N[C@@H](C)C(=O)N[C@@H](CC(=O)O)C(=O)N4CCC[C@H]4C(=O)N[C@@H](Cc4ccc(O)cc4)C(=O)N[C@@H](CCCC)C(=O)N[C@H](C(=O)N[C@@H](CCCCNC(=O)CCOCCOCCOCCOCCOCCOCCOCCOCCOCCOCCOCCOCCNC(=O)CCCC[C@@H]4SC[C@@H]5NC(=O)N[C@@H]54)C(N)=O)CSCCC6=O)nn3)nn1)C(=O)N1CCC[C@H]1C(=O)N[C@@H](Cc1ccc(O)cc1)C(=O)N2 | Tumor necrosis factor receptor superfamily member 5 (Homo sapiens, UniProt P25942) | binding, SPR |  |  | > 0.1 µM
CCCCCCCO[C@H]1O[C@H](CO)[C@@H](O)[C@H](O)[C@@H]1O | Type 1 fimbrin D-mannose specific adhesin, lectin domain (fimH, Escherichia coli K-12, UniProt P08191) | binding, isothermal titration calorimetry |  | 15 °C, global fit, two runs | 0.0206 µM
O=C(Nc1ccc(C(=O)Nc2ccc3c(O)cc(S(=O)(=O)O)cc3c2)cc1)c1ccccc1 | TREX1 (Homo sapiens, UniProt Q9NSU2) | binding, fluorescence |  |  | 20.8 µM
C=CC(=O)N1CCCN(C(=O)c2cc(Sc3cnc(NC(=O)C4CC4)s3)c(C)cc2OC)C[C@H]1C | TXK (Homo sapiens, UniProt P42681) | binding, competition with immobilised ligand |  |  | 2.7 µM
C=CC(=O)N1CC2(CCN(c3nc(OC4CCN(CCCOC)CC4)nc4c(OCC(F)(F)F)c(-c5c(C)ccc6[nH]ncc56)c(C5CC5)cc34)CC2)C1 | GTPase KRas, GDP-bound (KRAS, Homo sapiens, UniProt P01116) | SPR |  |  | 1.08 µM
C=C1C[C@]23C[C@H]1CC[C@H]2[C@@]12CC[C@H](O)[C@@](C)(C(=O)O1)[C@H]2[C@@H]3C(=O)O | GID1 (Oryza sativa, UniProt Q6L545) |  |  |  | 0.35 µM
Nc1ncnc2c1ncn2C1OC(CN(CCCC2CNCc3c2ccc(Cl)c3Cl)CCC(N)C(=O)O)C(O)C1O (mixture of isomers) | PNMT (Homo sapiens, UniProt P11086) | ITC |  | pH 8.0, 25 °C, first site, SAH-bound enzyme | 0.01 ± 0.003 µM
NCCCC[C@H](NC(=O)[C@H](C/C=C\C[C@H](NC(=O)[C@@H]1CCCN1)C(=O)N[C@@H](CCCCN)C(=O)NCCCN)NC(=O)[C@@H]1CCCN1)C(=O)NCCCN | (CCUG)10 RNA | SPR |  |  | 22.6 µM
O=C(Nc1ccc(Cl)cc1)Nc1ccc(C2=NNC(c3ccc(NC(=O)Nc4ccc(Cl)cc4)cc3)C2)cc1 (stereo not shown) | AGER | binding |  |  | 17.1 ± 2 µM
CCc1nc2cc3ccccc3cc2cc1C(=O)N1CCC[C@H]1C(=O)N[C@@H](CCC/C=C\CCC[C@H](NC(=O)[C@@H]1CCCN1C(=O)c1cc2cc3ccccc3cc2nc1CC)C(=O)N[C@@H](CCCCN)C(=O)NCCCN)C(=O)N[C@@H](CCCCN)C(=O)NCCCN | (CCUG)10 RNA | SPR |  |  | 0.292 µM
COc1ccc(OC)c(-n2nnc(C(=O)Nc3cc(OCCOCCOCCOCCNC(=O)CCc4ccc5n4[B-](F)(F)[N+]4=C(C)C=C(C)C4=C5)cc(C(C)(C)C)c3)c2C)c1 | Nuclear receptor subfamily 1 group I member 2, ligand-binding domain (NR1I2, Homo sapiens, UniProt O75469, L411A) | binding |  | PXR LBD L411A | 0.04 ± 0.004 µM
Nc1ncc2c(n1)-c1c([nH]c3ccc(C4=CCOCC4)cc13)CCC2 | PIP4K2C (Homo sapiens, UniProt Q8TBX8) | binding, competition with immobilised ligand |  |  | 0.019 µM
Cn1ncc2cc(-c3cncc(Cl)c3N3CCC4(CCNC4=O)CC3)ccc21 | PIKFYVE (Homo sapiens, UniProt Q9Y2I7) | SILAC displacement | LS174T-L5 cell lysate |  | 0.407 µM
O=C(Nc1ccc(Cl)cc1)Nc1ccc(C2=NNC(c3ccc(Cl)cc3)C2)cc1 (stereo not shown) | AGER | binding |  |  | 15.1 ± 2.4 µM
Nc1ncnc2c1ncn2[C@@H]1O[C@H](COP(=O)(O)OP(=O)(O)OP(=O)(O)O)[C@@H](O)[C@H]1O | PLCG2 (Homo sapiens, UniProt P16885) | binding, surface plasmon resonance |  | 25 °C, immobilised residues 1-1195 | 8 µM
CCOC(=O)C1CC(CC)C2C=CC3CCN(C(=O)C4CCC5C=CC6(CCCN6C(=O)C(Cc6ccccc6Cl)NC(C)=O)C(=O)N54)C3C(=O)N12 (stereo not shown) | Tyrosine-protein kinase Fyn, SH3 domain (FYN, Homo sapiens, UniProt P06241) | binding |  |  | 1900 µM
CCc1nc2cc3ccccc3cc2cc1C(=O)N1CCC[C@H]1C(=O)N[C@@H](C/C=C/C[C@H](NC(=O)[C@@H]1CCCN1C(=O)c1cc2cc3ccccc3cc2nc1CC)C(=O)N[C@@H](CCCCN)C(=O)NCCCN)C(=O)N[C@@H](CCCCN)C(=O)NCCCN | (CCUG)10 RNA | SPR |  |  | 0.013 µM
CCCCCNC(=O)N1N=C(c2ccc(Cl)cc2)CC1c1ccc(NC(=O)Nc2ccc(Cl)cc2)cc1 (stereo not shown) | AGER | binding |  |  | 13.8 ± 3.1 µM
Cc1cccc2c1N(C(=O)n1ccnn1)CC2 | D14 (Oryza sativa, UniProt Q10QA5) | binding, ITC |  |  | 31.5 µM and 25.8 µM and 14 µM
Cc1c[nH]c2nccc(-c3ccc(C(=O)N[C@@H]4c5c(F)cc(C(F)F)cc5C[C@@H]4O)cn3)c12 | PAK4 (Homo sapiens, UniProt O96013) | binding, competition with immobilised ligand |  |  | 0.42 µM
CCc1nc2cc3ccccc3cc2cc1C(=O)N[C@@H](CCCCN)C(=O)N[C@@H](C/C=C\C[C@H](NC(=O)[C@H](CCCCN)NC(=O)c1cc2cc3ccccc3cc2nc1CC)C(=O)N1CCC[C@H]1C(=O)NCCCN)C(=O)N1CCC[C@H]1C(=O)NCCCN | (CCUG)10 RNA | SPR |  |  | 0.275 µM

A few entries again:
Structure (SMILES) | target | assay | test system | setting | Kd
NCCCC[C@H](NC(=O)[C@H](C/C=C\C[C@H](NC(=O)[C@@H]1CCCN1)C(=O)N[C@@H](CCCCN)C(=O)NCCCN)NC(=O)[C@@H]1CCCN1)C(=O)NCCCN | (CCUG)10 RNA | SPR |  |  | 22.6 µM
CCc1nc2cc3ccccc3cc2cc1C(=O)N1CCC[C@H]1C(=O)N[C@@H](CCC/C=C\CCC[C@H](NC(=O)[C@@H]1CCCN1C(=O)c1cc2cc3ccccc3cc2nc1CC)C(=O)N[C@@H](CCCCN)C(=O)NCCCN)C(=O)N[C@@H](CCCCN)C(=O)NCCCN | (CCUG)10 RNA | SPR |  |  | 0.292 µM
CCc1nc2cc3ccccc3cc2cc1C(=O)N1CCC[C@H]1C(=O)N[C@@H](C/C=C/C[C@H](NC(=O)[C@@H]1CCCN1C(=O)c1cc2cc3ccccc3cc2nc1CC)C(=O)N[C@@H](CCCCN)C(=O)NCCCN)C(=O)N[C@@H](CCCCN)C(=O)NCCCN | (CCUG)10 RNA | SPR |  |  | 0.013 µM
